Measurements gathered from unrelated publications.
Each numbered part is a random draw from the data of one study; scales do not carry over between parts. Changes are numbered by the printed parent chain.

Block 1
Target: Histone acetyltransferase KAT6A, winged helix 2, GST fusion (KAT6A, Homo sapiens, UniProt Q92794, residues 85-181)
Technique: protein binding microarray
Form: double-stranded DNA, one strand shown
Sample: in vitro
Tested at: not given
Notes: 8-mer, flanks averaged, mean of 2 arrays, mostly near background
Reference: not given
Direction: higher = stronger binding
Target sequence (chain): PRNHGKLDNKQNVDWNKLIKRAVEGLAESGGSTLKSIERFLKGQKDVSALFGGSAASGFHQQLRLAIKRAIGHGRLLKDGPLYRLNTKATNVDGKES
Sequence | E-score
AGTCGCAC | -0.154
GAGGCCTC | 0.181
CGCCGCGC | 0.206
CGGTCTTC | 0.0288
AAGGACCC | -0.013
GTGCAGGA | 0.00205
GACCGCAC | 0.111
GAGTCCAA | -0.089

Block 2
Target: Sal-like protein 4, full length isoform A (SALL4, Homo sapiens, UniProt Q9UJQ4, residues 1-1053)
Chain of UniProt Q9UJQ4 (whole entry, looked up): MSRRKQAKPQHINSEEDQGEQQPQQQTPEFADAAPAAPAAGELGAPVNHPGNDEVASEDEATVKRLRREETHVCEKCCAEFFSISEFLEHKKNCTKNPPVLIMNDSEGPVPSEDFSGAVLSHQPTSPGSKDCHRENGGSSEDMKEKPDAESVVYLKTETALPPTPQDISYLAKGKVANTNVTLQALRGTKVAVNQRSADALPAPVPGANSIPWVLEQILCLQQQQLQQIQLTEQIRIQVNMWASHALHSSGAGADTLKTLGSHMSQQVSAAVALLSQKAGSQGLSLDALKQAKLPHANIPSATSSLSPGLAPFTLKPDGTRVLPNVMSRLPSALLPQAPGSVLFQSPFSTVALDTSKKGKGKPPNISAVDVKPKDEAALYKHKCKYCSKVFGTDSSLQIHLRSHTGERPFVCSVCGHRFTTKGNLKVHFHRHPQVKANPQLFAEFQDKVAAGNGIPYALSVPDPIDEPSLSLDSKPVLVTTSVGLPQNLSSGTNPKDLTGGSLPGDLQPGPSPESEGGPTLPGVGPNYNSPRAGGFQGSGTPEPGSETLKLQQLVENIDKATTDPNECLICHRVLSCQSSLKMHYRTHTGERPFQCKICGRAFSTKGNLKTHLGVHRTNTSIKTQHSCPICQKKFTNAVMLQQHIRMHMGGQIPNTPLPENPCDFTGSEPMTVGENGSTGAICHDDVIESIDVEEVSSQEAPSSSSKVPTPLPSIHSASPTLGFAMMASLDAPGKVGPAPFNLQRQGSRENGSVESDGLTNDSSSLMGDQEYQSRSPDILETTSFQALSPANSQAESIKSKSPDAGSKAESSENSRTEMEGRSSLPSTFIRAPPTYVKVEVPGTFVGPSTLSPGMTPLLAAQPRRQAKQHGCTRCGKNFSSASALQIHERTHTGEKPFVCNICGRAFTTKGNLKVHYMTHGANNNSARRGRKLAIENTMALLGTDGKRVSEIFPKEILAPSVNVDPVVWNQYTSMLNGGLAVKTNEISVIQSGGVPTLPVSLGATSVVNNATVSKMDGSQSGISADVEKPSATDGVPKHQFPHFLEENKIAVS
Technique: universal PBM
Form: double-stranded DNA, one strand shown
Sample: in vitro
Tested at: 600 nM
Notes: 8-mer, flanks averaged, mean of replicates
Direction: higher = stronger binding
Sequence | E-score
CGTGGCAA | -0.0468
GACTATAA | 0.285
CGACTCGA | -0.147
CGCTCACG | -0.309
CTTTCTAA | 0.152
GCTGATAA | 0.172
CCACCACG | -0.0758
CGTCTTAG | -0.111

Block 3
Target: OGT, full length, His-tagged (human)
Technique: phage display, sequencing
Sample: in vitro
Tested at: 1 µg OGT
Notes: single substitutions, 15-mer displayed peptide, unchanged parent 19.6
Reference: input library
Direction: higher = stronger binding
Starting sequence: peptide; TAPFYPPAYQIQVFK
Change | fold enrichment
TAPGYPPAYQIQVFK [F4G] | 4.52 fold
TAPFYPPAYQIQVFT [K15T] | 10.2 fold
TAPFYWPAYQIQVFK [P6W] | 2.72 fold
TAPFYPPAYRIQVFK [Q10R] | 1.51 fold
TAPFYPSAYQIQVFK [P7S] | 1.06 fold
TAPFYPPAYQIQYFK [V13Y] | 23 fold
TAPFYPPAYQTQVFK [I11T] | 0.483 fold
QAPFYPPAYQIQVFK [T1Q] | 10.4 fold

Mixed results
Starting sequence: PafA, mature enzyme, eGFP fusion (Elizabethkingia meningoseptica, UniProt Q9KJX5); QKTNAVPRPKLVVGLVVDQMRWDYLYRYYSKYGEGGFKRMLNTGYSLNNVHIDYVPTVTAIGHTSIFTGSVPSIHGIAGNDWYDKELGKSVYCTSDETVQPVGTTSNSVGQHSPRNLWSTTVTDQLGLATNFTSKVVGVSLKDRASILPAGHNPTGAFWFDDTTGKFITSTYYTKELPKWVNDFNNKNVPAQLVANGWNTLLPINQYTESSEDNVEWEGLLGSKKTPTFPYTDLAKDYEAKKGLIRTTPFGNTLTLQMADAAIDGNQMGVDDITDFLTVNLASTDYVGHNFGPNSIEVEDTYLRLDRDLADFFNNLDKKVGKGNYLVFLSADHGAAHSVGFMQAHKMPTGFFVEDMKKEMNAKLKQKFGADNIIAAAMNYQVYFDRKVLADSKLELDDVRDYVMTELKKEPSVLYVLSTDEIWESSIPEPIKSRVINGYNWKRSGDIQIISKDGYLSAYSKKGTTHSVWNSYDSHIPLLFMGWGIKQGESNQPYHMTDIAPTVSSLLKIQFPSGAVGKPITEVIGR
Change | target | assay | system | setting | how to read | quantity | result
F37V | tungstate, free oxyanion | microfluidic competitive inhibition | in vitro, cell-free expressed | not given, derived from inhibition constants, unchanged parent 2230 nM | lower = stronger binding | oxyanion analog dissociation constant | 1.73 µM
